Measurements collected from several papers.
Compare with care: the assays were run in different laboratories. Numbers after ± are the reported error.

Compound | test | system | setting | tissue uptake
CCCC[C@H](NC(=O)CNC(=O)CNC(=O)CN1CCN(CC(=O)O)CCN(CC(=O)O)CC1)C(=O)N[C@H]1CC(=O)NCCCC[C@@H](C(N)=O)NC(=O)[C@H](Cc2c[nH]c3ccccc23)NC(=O)[C@H](CCCNC(=N)N)NC(=O)[C@@H](Cc2ccccc2)NC(=O)[C@H](Cc2c[nH]cn2)NC1=O [gallium-67 labelled] | – | female C57 mice, B16/F1 melanoma, stomach | intravenous, 0.037 MBq, 2 h | 1.62 ± 0.63 %ID/g
OCc1cn(Cc2ccc(-c3noc(-c4ccc(OCC[18F])c(C(F)(F)F)c4)n3)cc2)nn1 | – | female Lewis rat, lung | intravenous, 5 min | 2.79 ± 0.57 %ID/g
CCCC[C@@H]1NC(=O)[C@@H](NC(=O)[C@H](CCC(=O)O)NC(=O)CNC(=O)CN2CCN(CC(=O)O)CCN(CC(=O)O)CCN(CC(=O)O)CC2)CCCCNC(=O)C[C@@H](C(N)=O)NC(=O)[C@H](C(C)C)NC(=O)[C@@H]2CCCN2C(=O)[C@H](CCCNC(=N)N)NC(=O)CNC(=O)[C@H](Cc2c[nH]c3ccccc23)NC(=O)[C@H](CCCNC(=N)N)NC(=O)[C@@H](Cc2ccccc2)NC(=O)[C@H](Cc2c[nH]cn2)NC(=O)[C@H](CCC(=O)O)NC1=O [gallium-67 labelled] | – | C57 mice, B16/F1 flank melanoma, brain | intravenous, 2 h, together with: blocking peptide 10 µg | 0.01 %ID/g
CCCC[C@H](NC(=O)CNC(=O)CNC(=O)CN1CCN(CC(=O)O)CCN(CC(=O)O)CCN(CC(=O)O)CC1)C(=O)N[C@H]1CC(=O)NCCCC[C@@H](C(N)=O)NC(=O)[C@H](Cc2c[nH]c3ccccc23)NC(=O)[C@H](CCCNC(=N)N)NC(=O)[C@@H](Cc2ccccc2)NC(=O)[C@H](Cc2c[nH]cn2)NC1=O [lead-203 labelled] | – | C57 mouse, skin | intravenous, 0.056 MBq, 24 h | 0.17 ± 0.11 %ID/g
CCCC[C@H](NC(=O)CNC(=O)CNC(=O)CN1CCN(CC(=O)O)CCN(CC(=O)O)CC1)C(=O)N[C@H]1CC(=O)NCCCC[C@@H](C(N)=O)NC(=O)[C@H](Cc2c[nH]c3ccccc23)NC(=O)[C@H](CCCNC(=N)N)NC(=O)[C@@H](Cc2ccccc2)NC(=O)[C@H](Cc2c[nH]cn2)NC1=O [copper-64 labelled] | – | female C57 mouse, B16/F1 melanoma, muscle | intravenous, 0.037 MBq, 0.5 h | 0.31 ± 0.08 %ID/g
C[C@H](CN(C)Cc1ccccc1)NC(=O)c1ccc(-c2noc(C(F)(F)[18F])n2)cc1 | PET imaging | female Sprague-Dawley rats, hippocampus | intravenous, 60 min | 1.34 ± 0.23 SUV
CC(C)[C@H](NC(=O)[C@@H]1CCCN1C(=O)[C@H](CCCNC(=N)N)NC(=O)[C@H](CS)NC(=O)[C@H](Cc1c[nH]c2ccccc12)NC(=O)[C@H](CCCNC(=N)N)NC(=O)[C@@H](Cc1ccccc1)NC(=O)[C@H](Cc1c[nH]cn1)NC(=O)[C@H](CCC(=O)O)NC(=O)[C@H](CS)NC(=O)[C@H](CS)NC(=O)[C@@H]1CC(=O)N[C@@H](CCCNC(=N)N)C(=O)NCC(=O)N[C@@H](CC(=O)O)C(=O)N[C@H](Cc2ccc(O)cc2)C(=O)N1)C(N)=O [technetium-99m labelled] | – | C57 mouse, female, B16/F1 melanoma, heart | intravenous, 0.037 MBq, 0.5 h | 3.09 ± 1.13 %ID/g
CCCC[C@H](NC(=O)CNC(=O)CNC(=O)CN1CCN(CC(=O)O)CCN(CC(=O)O)CCN(CC(=O)O)CC1)C(=O)N[C@H]1CC(=O)NCCCC[C@@H](C(N)=O)NC(=O)[C@H](Cc2c[nH]c3ccccc23)NC(=O)[C@H](CCCNC(=N)N)NC(=O)[C@@H](Cc2ccccc2)NC(=O)[C@H](Cc2c[nH]cn2)NC1=O [copper-64 labelled] | – | female C57 mouse, B16/F1 melanoma, heart | intravenous, 0.037 MBq, 0.5 h | 2.22 ± 0.25 %ID/g
CC(C)[C@H](NC(=O)[C@@H]1CCCN1C(=O)[C@H](CCCNC(=N)N)NC(=O)[C@H](CS)NC(=O)[C@H](Cc1c[nH]c2ccccc12)NC(=O)[C@H](CCCNC(=N)N)NC(=O)[C@@H](Cc1ccccc1)NC(=O)[C@H](Cc1c[nH]cn1)NC(=O)[C@H](CCC(=O)O)NC(=O)[C@H](CS)NC(=O)[C@H](CS)NC(=O)CNC(=O)[C@@H]1CC(=O)N[C@@H](CCCNC(=N)N)C(=O)NCC(=O)N[C@@H](CC(=O)O)C(=O)N[C@H](Cc2ccc(O)cc2)C(=O)N1)C(N)=O [technetium-99m labelled] | – | C57 mouse, female, B16/F1 melanoma, pancreas | intravenous, 0.037 MBq, 4 h | 0.24 ± 0.13 %ID/g
O=C(O)C1CN(Cc2ccc(-c3noc(-c4ccc(OCC[18F])c(C(F)(F)F)c4)n3)cc2)C1 | – | male Sprague-Dawley rat, bone | intravenous, 5 min | 0.215 ± 0.027 %ID/g
O=C([O-])CN1CCN(CC(=O)[O-])CCN(CC(=O)NCCc2ccc3c(c2)C2C=CCC2C(c2cc4c(cc2Br)OCO4)N3)CCN(CC(=O)[O-])CC1.[111In+3] (stereo not drawn) | – | mouse, Hec50 endometrial tumour, kidneys | 1 h post injection | 3.95 ± 0.43 %ID/g
O=C([O-])CN1CCN(CC(=O)[O-])CCN(CC(=O)[O-])CCN(CC(=O)[O-])CC1.[64Cu+2] | – | healthy athymic nude mice, heart | intravenous, 4 h | 0.57 %ID/g
